{"data": "Measurements pooled from the literature", "note": "Each numbered part is a random draw from the data of one study; scales do not carry over between parts. Positions count from the first letter of the parent shown."}
{"data": "Series 1", "target": "ABI1, truncated, D143A, DHFR fusion (Arabidopsis thaliana)", "technique": "DHFR PCA, deep sequencing", "matrix": "yeast", "notes": "methotrexate growth selection, single substitutions", "together with": "(+)-ABA 17 µM", "relative to": "wild-type fitted maximum", "direction": "higher = stronger binding", "parent": "PYL1, truncated, DHFR fusion (Arabidopsis thaliana); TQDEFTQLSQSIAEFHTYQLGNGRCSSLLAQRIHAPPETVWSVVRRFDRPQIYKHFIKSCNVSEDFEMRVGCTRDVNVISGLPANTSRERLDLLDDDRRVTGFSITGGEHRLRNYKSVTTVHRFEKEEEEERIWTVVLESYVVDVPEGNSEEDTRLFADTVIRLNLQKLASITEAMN"}
{"Change": "V44P", "relative binding score [%]": -6.32}
{"Change": "N61E", "relative binding score [%]": 89.1}
{"Change": "S27V", "relative binding score [%]": -5.53}
{"Change": "I33L", "relative binding score [%]": 2.8}
{"Change": "S11V", "relative binding score [%]": 85.8}
{"Change": "H34Q", "relative binding score [%]": 79.3}
{"Change": "Q19A", "relative binding score [%]": 85.1}
{"Change": "S42D", "relative binding score [%]": 78.4}
{"data": "Series 2", "target": "TAR DNA-binding protein 43, full length, His tag (TARDBP, Homo sapiens, UniProt Q13148, residues 1-414)", "technique": "RNA Bind-n-Seq", "molecule type": "RNA", "matrix": "in vitro", "tested at": "20 nM", "notes": "6-mer, flanks averaged, single round", "together with": "150 mM LiCl", "relative to": "input library", "direction": "higher = stronger binding"}
{"Sequence": "CAAGUC", "6-mer enrichment (R)": 0.815}
{"Sequence": "ACUUGA", "6-mer enrichment (R)": 0.878}
{"Sequence": "AUUCGU", "6-mer enrichment (R)": 0.909}
{"Sequence": "GUGUUG", "6-mer enrichment (R)": 1.68}
{"Sequence": "CAAGGA", "6-mer enrichment (R)": 0.842}
{"Sequence": "CCGACG", "6-mer enrichment (R)": 0.849}
{"Sequence": "UGUAGC", "6-mer enrichment (R)": 1.06}
{"Sequence": "ACUCCA", "6-mer enrichment (R)": 0.93}
{"data": "Series 3", "target": "Sal-like protein 4, full length isoform B (SALL4, Homo sapiens, UniProt Q9UJQ4-2, residues 1-616)", "technique": "universal PBM", "molecule type": "double-stranded DNA, one strand shown", "matrix": "in vitro", "tested at": "not given", "notes": "8-mer, flanks averaged, mean of replicates", "direction": "higher = stronger binding", "Target sequence (chain)": "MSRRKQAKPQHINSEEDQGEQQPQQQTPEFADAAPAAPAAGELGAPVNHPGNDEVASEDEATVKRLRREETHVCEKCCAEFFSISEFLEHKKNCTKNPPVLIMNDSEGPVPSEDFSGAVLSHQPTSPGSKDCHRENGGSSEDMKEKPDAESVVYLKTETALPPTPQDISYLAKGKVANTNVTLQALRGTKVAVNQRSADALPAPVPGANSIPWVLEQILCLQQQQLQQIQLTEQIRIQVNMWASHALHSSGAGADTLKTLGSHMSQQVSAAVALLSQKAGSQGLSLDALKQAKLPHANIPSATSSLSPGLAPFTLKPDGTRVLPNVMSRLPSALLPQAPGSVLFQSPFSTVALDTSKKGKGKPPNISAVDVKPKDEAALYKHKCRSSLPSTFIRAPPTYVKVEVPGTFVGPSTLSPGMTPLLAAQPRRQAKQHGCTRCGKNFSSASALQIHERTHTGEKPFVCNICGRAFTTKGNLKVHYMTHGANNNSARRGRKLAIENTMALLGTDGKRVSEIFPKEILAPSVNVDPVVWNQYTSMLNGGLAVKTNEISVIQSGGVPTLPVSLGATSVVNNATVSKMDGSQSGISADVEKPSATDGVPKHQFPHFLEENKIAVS"}
{"Sequence": "AAGGCCGC", "E-score": -0.206}
{"Sequence": "CCAACACA", "E-score": 0.137}
{"Sequence": "GTTGGGGA", "E-score": -0.241}
{"Sequence": "ACGCAGAC", "E-score": -0.0569}
{"Sequence": "CCCCGAAA", "E-score": -0.0486}
{"Sequence": "AGGCTGAT", "E-score": -0.0258}
{"Sequence": "AGGATCGA", "E-score": -0.012}
{"Sequence": "GCGGACGC", "E-score": -0.271}
{"data": "Single results of other studies"}
{"Molecule": "NPAACSYMV", "target": "HLA class I histocompatibility antigen, A alpha chain, allele A*25:01 (Homo sapiens, UniProt P04439)", "assay": "peptide-MHC binding", "test system": "peptide", "conditions": "concentration not given", "endpoint": "binding", "result": "inactive"}
